Measurements of several laboratories.
Parts stem from different laboratories: compare values within a part only.
Chain of UniProt P23975 (whole entry, looked up): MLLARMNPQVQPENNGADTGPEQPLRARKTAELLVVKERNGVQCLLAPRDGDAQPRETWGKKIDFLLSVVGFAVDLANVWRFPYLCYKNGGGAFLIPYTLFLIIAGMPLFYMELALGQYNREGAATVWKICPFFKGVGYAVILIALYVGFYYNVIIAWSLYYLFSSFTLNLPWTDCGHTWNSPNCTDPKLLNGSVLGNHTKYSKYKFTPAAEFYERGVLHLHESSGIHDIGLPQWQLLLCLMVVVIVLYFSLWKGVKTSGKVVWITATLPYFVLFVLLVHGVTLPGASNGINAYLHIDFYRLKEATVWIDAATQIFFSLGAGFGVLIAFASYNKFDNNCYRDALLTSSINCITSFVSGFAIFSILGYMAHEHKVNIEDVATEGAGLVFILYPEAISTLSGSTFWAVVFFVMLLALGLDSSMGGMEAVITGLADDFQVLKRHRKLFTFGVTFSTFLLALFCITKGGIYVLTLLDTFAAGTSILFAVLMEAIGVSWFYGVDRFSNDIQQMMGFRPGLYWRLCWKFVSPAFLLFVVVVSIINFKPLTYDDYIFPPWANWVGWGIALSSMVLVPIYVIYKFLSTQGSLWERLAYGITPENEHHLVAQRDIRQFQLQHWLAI
Chain of UniProt Q01959 (whole entry, looked up): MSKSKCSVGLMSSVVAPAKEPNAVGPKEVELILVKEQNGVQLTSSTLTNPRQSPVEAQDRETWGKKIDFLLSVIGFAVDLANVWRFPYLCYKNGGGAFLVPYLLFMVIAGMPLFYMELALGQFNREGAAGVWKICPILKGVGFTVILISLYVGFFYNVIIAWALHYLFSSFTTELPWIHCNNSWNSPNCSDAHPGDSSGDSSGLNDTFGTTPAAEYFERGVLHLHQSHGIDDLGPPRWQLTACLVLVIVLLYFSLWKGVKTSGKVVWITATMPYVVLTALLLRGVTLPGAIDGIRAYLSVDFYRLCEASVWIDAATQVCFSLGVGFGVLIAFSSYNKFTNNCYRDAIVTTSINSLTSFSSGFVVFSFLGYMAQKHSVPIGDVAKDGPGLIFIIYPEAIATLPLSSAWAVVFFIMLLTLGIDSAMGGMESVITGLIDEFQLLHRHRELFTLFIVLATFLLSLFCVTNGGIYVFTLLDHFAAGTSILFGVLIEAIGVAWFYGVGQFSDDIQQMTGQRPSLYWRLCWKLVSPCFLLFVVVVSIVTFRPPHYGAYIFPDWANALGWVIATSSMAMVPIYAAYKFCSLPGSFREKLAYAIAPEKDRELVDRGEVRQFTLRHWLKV
Chain of UniProt P31645 (whole entry, looked up): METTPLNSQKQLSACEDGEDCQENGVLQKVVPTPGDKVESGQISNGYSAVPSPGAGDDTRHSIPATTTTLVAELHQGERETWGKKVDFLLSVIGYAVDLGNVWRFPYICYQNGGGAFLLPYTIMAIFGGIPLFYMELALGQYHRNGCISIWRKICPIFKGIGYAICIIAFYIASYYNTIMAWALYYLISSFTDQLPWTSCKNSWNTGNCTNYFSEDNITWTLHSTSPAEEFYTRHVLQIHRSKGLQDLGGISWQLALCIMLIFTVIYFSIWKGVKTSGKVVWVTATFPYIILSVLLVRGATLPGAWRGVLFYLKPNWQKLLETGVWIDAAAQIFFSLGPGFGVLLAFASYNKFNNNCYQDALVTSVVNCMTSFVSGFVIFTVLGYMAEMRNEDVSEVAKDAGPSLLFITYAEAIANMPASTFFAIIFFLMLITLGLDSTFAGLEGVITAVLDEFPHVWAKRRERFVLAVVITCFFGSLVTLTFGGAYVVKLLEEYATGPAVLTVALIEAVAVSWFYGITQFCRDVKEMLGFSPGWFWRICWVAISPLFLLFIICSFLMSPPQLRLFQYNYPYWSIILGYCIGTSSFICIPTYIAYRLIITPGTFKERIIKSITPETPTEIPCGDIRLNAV

Block 1
SMILES: CNCc1ccccc1-c1csc([C@@H](C)Nc2nc(C)nc3cc(OC)c(OC)cc23)c1
Tested at: 10 µM
target	observed	technique	inhibition [%]
SLC6A2 (Homo sapiens, UniProt P23975)	binding	radioligand binding	84
SLC6A3 (Homo sapiens, UniProt Q01959)	binding	radioligand binding	77.2
SLC6A4 (Homo sapiens, UniProt P31645)	binding	radioligand binding	47.4
CHRM1 (Homo sapiens, UniProt P11229)	cell-free assay		88.8

Block 2
Target: DNA polymerase theta, ATPase domain (POLQ, Homo sapiens, UniProt O75417)
Chain of UniProt O75417 (whole entry, unmodified, looked up): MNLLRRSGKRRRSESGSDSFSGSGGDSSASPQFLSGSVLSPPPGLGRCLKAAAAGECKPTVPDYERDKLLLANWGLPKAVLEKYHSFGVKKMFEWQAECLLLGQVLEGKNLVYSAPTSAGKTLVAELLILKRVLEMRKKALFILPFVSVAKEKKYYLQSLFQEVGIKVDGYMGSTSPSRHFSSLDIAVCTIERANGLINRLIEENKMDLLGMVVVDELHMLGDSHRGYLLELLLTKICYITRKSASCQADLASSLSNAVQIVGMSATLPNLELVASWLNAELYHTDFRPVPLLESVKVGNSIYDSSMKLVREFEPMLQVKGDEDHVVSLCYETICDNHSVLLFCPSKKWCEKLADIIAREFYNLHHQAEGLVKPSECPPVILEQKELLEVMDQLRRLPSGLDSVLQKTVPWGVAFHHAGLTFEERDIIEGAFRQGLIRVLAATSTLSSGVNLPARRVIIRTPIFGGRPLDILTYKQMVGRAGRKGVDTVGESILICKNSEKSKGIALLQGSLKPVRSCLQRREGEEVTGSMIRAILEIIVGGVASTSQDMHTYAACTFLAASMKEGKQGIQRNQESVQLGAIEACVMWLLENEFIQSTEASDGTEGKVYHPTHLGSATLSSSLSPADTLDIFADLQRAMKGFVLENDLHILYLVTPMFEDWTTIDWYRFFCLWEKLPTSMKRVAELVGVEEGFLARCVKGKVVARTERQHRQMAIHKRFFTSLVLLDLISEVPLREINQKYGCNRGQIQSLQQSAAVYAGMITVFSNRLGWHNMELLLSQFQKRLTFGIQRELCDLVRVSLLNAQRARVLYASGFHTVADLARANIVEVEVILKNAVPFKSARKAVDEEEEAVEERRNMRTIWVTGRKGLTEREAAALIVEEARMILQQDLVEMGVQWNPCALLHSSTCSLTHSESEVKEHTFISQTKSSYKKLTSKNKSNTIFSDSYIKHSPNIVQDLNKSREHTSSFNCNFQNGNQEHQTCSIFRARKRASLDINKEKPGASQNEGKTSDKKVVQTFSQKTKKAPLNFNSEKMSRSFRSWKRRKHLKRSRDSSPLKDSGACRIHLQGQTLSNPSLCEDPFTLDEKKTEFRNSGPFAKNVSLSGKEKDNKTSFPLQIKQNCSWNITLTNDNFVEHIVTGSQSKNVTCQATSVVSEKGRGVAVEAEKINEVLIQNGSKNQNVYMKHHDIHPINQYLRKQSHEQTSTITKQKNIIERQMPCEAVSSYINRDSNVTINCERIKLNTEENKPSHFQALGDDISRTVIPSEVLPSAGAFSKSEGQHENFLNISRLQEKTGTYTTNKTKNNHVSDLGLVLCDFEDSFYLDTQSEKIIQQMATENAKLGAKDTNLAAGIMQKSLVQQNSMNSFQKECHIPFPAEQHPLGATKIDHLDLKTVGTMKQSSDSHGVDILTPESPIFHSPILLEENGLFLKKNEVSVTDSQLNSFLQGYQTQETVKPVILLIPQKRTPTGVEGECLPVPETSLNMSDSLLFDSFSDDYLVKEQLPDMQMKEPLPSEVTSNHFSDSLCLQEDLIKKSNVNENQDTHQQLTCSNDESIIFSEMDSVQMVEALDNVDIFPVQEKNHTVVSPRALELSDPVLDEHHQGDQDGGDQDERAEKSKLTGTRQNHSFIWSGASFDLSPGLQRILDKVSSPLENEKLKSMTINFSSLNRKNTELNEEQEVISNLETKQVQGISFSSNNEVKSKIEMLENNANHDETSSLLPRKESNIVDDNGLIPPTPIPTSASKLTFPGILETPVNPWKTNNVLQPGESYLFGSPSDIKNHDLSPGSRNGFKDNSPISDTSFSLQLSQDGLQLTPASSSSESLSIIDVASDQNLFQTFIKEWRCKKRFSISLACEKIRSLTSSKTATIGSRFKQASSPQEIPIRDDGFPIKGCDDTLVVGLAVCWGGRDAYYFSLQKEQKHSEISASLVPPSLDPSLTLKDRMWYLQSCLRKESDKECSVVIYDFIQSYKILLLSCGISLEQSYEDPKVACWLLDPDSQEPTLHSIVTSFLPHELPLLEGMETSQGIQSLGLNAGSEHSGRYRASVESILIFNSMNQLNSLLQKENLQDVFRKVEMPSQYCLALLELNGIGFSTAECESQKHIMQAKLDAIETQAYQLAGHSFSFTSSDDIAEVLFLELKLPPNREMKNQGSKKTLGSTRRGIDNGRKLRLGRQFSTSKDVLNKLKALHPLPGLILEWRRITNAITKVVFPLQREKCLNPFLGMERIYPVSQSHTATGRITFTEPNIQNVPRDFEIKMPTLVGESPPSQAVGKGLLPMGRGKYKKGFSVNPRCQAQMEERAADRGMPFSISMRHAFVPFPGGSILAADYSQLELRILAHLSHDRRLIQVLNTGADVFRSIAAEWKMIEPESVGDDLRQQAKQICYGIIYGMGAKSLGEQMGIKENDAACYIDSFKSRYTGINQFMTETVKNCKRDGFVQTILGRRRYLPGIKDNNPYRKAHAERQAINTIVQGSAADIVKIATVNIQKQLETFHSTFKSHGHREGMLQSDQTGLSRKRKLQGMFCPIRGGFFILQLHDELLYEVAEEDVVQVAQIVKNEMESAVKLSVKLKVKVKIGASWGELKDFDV
Observed: enzyme activity
Mode: inhibitor
Tested at: 77 µM
Relative to: untreated
Compound	remaining activity [%]
NC(Cc1cc(O)c(O)cc1O)C(=O)O (racemic)	81.5
C[C@](O)(COc1ccc(C#N)cc1)C(=O)Nc1ccc(C#N)c(C(F)(F)F)c1	104
Cc1cc([C@@H]2CCCN2C)on1	83.3
N/C(=N\N=C\c1ccc(-c2cccc([N+](=O)[O-])c2)o1)N[N+](=O)[O-]	106

Block 3
Target: Calcium/calmodulin-dependent protein kinase type II subunit alpha (CAMK2A, Homo sapiens, UniProt Q9UQM7)
Chain of UniProt Q9UQM7 (whole entry, looked up): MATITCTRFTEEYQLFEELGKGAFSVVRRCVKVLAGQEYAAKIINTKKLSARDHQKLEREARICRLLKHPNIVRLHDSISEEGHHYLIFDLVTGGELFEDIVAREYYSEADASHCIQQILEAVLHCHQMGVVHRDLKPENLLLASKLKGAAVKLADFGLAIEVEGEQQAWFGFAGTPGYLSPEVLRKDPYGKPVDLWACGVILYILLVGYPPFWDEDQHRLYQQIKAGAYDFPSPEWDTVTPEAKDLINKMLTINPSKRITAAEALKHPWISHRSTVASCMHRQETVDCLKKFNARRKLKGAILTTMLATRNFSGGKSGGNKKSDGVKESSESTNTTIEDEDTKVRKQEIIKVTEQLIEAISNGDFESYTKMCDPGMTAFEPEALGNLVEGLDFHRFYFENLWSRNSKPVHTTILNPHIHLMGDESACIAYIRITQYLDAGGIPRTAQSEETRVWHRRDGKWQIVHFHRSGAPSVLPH
Observed: enzyme activity
Mode: inhibitor
Tested at: 10 µM
SMILES	inhibition
CCN1C[C@]2(COC)CC[C@H](OC)[C@]34C1[C@H](C[C@H]23)[C@@]1(O)C[C@H](OC)[C@H]2C[C@@H]4[C@@H]1[C@H]2O	-17%
C/C=C(/C)C(=O)O[C@H]1[C@@H]2[C@H](C)C(=O)O[C@@H]2C[C@@H](C)[C@@H]2C=CC(=O)[C@]21C	-23%
CO[C@H]1C[C@H](O[C@H]2CC[C@]3(C)[C@H]4CC[C@]5(C)[C@@H](C6=CC(=O)OC6)CC[C@]5(O)[C@@H]4CC[C@]3(O)C2)O[C@H](C)[C@H]1O	13%
COc1c(O)cc2c3c1-c1ccccc1C[C@H]3N(C)CC2	-39%
C#C[C@]1(OC(=O)CCCCCC)CC[C@H]2[C@@H]3CCC4=CC(=O)CC[C@@H]4[C@H]3CC[C@@]21C	-2%

Mixed results
Compound	target	observed	mode	technique	tested at	measurement	result
COC[C@H]1OC(=O)c2coc3c2[C@@]1(C)C1=C(C3=O)[C@@H]2CCC(=O)[C@@]2(C)C[C@H]1OC(C)=O	Leukocyte tyrosine kinase receptor (LTK, Homo sapiens, UniProt P29376)	enzyme activity	inhibitor	radiometric	0.5 µM	activity vs control	100%
